Assay results pooled from the literature.
± marks the error that the study gave. Values after ≈ are worked out from the molar mass of the structure shown.
Cell line: HUVEC

SMILES	assay	setting	endpoint	value
COc1ccc(CC[C@H]2OC(=O)[C@@H]3CCCCN3C(=O)C(=O)C(C)(C)COC(=O)C=CCCN(C)C(=O)[C@H](CC(C)C)N(C)C(=O)[C@H]3CCCN3C(=O)[C@H](Cc3ccc(Cl)cc3)NC(=O)[C@H](c3ccccc3)NC(=O)CCC(=O)Nc3cccc2c3)cc1OC	thymidine uptake, inhibitor		IC50	123 ± 29 nM
O=C(NCc1cc(F)cc(F)c1)[C@@]1(O)CCN(c2ccc3[nH]ccc3c2)C1=O	Matrigel tube formation, item: total tube length	10 µM, no pretreatment	inhibition of tube formation	~50%
C/C1=C\[C@H](C)C[C@H](C)OC(=O)C[C@H](c2ccc(O)cc2)NC(=O)[C@@H](Cc2ccc(O)c(I)c2)N(C)C(=O)[C@H](C)NC(=O)[C@@H](C)C1	cell growth or viability		GI50	0.2 µg/mL (≈ 0.273 µM)
Oc1ccc(C#Cc2cccc3c2C(c2ccc(O)cc2)(c2ccc(O)cc2)c2cc(O)ccc2-3)cc1	cell growth or viability, MTT	48 h	IC50	> 50000 nM
COc1ccc(CC[C@H]2OC(=O)[C@@H]3CCCCN3C(=O)C(=O)C(C)(C)COC(=O)C=CCCN(C)C(=O)[C@H](CC(C)C)N(C)C(=O)[C@H]3CCCN3C(=O)[C@H](Cc3ccccc3)N(C)C(=O)[C@H](Cc3cccc4ccccc34)NC(=O)CCC(=O)Nc3cccc2c3)cc1OC	thymidine uptake, inhibitor		IC50	> 20000 nM
CC[C@H](C)[C@H](NC(=O)[C@H](CCCCN)NC(=O)[C@H](CCCCN)NC(=O)C[C@@H](NC(=O)[C@@H](NC(=O)[C@H](CCCCN)NC(=O)[C@H](Cc1ccccc1)NC(=O)C[C@H](CC(C)C)NC(=O)CN)[C@@H](C)CC)[C@@H](C)CC)C(=O)N[C@@H](C)CC(=O)N[C@@H](CCCCN)C(=O)N[C@@H](CO)C(=O)N[C@@H](Cc1ccccc1)C(N)=O	cytotoxicity		IC50	> 128 µg/mL
Cc1ccc2c(c1C#Cc1ccc(O)cc1)C(c1ccc(O)cc1)(c1ccc(O)cc1)c1cc(O)ccc1-2	cell growth or viability, MTT	48 h	IC50	> 50000 nM
CC[C@H](C)[C@H](NC(=O)[C@H](CCCCN)NC(=O)[C@H](Cc1ccccc1)NC(=O)[C@H]1CCC[C@@H]1NC(=O)CN)C(=O)N[C@H](CC(=O)N[C@@H](CCCCN)C(=O)N[C@@H](CCCCN)C(=O)N[C@H](CC(=O)N[C@@H](CC(C)C)C(=O)N[C@@H](CCCCN)C(=O)N[C@@H](CC(C)C)C(=O)N[C@H](CC(N)=O)Cc1ccccc1)[C@@H](C)CC)[C@@H](C)CC	cytotoxicity		IC50	3.6 µg/mL
COc1ccc(CC[C@H]2OC(=O)[C@@H]3CCCCN3C(=O)C(=O)C(C)(C)COC(=O)C=CCCN(C)C(=O)[C@H](CC(C)C)N(C)C(=O)[C@H]3CCCN3C(=O)[C@H](Cc3ccccc3)NC(=O)[C@H](c3ccccc3)NC(=O)CCC(=O)Nc3cccc2c3)cc1OC	thymidine uptake, inhibitor		IC50	64 ± 15 nM
CC[C@H](C)[C@H](NC(=O)C[C@H](CCCCN)NC(=O)[C@H](Cc1ccccc1)NC(=O)[C@H]1CCC[C@@H]1NC(=O)CN)C(=O)N[C@H](C(=O)N[C@@H](CCCCN)CC(=O)N[C@@H](CCCCN)C(=O)N[C@H]1CCC[C@@H]1C(=O)N[C@@H](CC(C)C)C(=O)N[C@@H](CCCCN)CC(=O)N[C@@H](CC(C)C)C(=O)N[C@@H](Cc1ccccc1)C(N)=O)[C@@H](C)CC	cytotoxicity		IC50	18.1 µg/mL
C/C1=C/[C@H](C)C[C@H](C)OC(=O)C[C@H](c2ccc(O)cc2)NC(=O)[C@@H](Cc2ccc(O)cc2)N(C)C(=O)[C@H](C)NC(=O)[C@@H](C)C1	cell growth or viability		GI50	35 µg/mL (≈ 57.6 µM)

Repeated from above:
SMILES	assay	setting	endpoint	value
CC[C@H](C)[C@H](NC(=O)[C@H](CCCCN)NC(=O)[C@H](CCCCN)NC(=O)C[C@@H](NC(=O)[C@@H](NC(=O)[C@H](CCCCN)NC(=O)[C@H](Cc1ccccc1)NC(=O)C[C@H](CC(C)C)NC(=O)CN)[C@@H](C)CC)[C@@H](C)CC)C(=O)N[C@@H](C)CC(=O)N[C@@H](CCCCN)C(=O)N[C@@H](CO)C(=O)N[C@@H](Cc1ccccc1)C(N)=O	cytotoxicity		IC50	> 128 µg/mL
